Measured values from different studies.
Numbered parts are unrelated; each lists some results of a single study. Several values in a cell are separate wells, animals, samples, runs or records.
Sequence of UniProt P51956 (whole entry, looked up): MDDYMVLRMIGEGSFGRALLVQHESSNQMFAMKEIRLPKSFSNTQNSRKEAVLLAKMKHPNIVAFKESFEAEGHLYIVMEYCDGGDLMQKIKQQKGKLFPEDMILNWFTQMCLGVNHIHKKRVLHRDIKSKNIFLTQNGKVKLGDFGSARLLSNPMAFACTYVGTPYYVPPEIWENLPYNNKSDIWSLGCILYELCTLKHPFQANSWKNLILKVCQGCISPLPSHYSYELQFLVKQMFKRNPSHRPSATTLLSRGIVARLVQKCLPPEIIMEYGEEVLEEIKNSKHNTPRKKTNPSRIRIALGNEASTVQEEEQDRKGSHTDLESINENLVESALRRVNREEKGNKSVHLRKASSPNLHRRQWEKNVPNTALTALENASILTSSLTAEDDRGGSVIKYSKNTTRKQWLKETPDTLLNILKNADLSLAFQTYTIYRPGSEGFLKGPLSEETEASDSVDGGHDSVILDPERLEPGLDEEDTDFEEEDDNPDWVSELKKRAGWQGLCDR
Sequence of UniProt Q15835 (whole entry, looked up): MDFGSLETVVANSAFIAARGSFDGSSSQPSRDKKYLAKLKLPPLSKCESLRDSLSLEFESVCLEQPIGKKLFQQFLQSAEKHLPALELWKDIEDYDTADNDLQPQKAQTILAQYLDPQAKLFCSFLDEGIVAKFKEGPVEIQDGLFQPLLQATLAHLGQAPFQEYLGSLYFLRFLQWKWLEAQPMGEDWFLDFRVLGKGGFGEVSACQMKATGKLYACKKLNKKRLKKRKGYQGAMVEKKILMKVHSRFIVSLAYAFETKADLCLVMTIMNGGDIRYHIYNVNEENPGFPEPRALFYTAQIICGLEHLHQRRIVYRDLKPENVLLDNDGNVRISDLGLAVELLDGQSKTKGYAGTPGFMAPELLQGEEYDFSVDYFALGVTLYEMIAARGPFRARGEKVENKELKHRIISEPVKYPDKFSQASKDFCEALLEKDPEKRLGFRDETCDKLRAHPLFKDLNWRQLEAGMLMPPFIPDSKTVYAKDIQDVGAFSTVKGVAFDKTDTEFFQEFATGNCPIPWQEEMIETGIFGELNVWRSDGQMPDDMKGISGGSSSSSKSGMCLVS
Sequence of UniProt Q9Y2K2 (whole entry, looked up): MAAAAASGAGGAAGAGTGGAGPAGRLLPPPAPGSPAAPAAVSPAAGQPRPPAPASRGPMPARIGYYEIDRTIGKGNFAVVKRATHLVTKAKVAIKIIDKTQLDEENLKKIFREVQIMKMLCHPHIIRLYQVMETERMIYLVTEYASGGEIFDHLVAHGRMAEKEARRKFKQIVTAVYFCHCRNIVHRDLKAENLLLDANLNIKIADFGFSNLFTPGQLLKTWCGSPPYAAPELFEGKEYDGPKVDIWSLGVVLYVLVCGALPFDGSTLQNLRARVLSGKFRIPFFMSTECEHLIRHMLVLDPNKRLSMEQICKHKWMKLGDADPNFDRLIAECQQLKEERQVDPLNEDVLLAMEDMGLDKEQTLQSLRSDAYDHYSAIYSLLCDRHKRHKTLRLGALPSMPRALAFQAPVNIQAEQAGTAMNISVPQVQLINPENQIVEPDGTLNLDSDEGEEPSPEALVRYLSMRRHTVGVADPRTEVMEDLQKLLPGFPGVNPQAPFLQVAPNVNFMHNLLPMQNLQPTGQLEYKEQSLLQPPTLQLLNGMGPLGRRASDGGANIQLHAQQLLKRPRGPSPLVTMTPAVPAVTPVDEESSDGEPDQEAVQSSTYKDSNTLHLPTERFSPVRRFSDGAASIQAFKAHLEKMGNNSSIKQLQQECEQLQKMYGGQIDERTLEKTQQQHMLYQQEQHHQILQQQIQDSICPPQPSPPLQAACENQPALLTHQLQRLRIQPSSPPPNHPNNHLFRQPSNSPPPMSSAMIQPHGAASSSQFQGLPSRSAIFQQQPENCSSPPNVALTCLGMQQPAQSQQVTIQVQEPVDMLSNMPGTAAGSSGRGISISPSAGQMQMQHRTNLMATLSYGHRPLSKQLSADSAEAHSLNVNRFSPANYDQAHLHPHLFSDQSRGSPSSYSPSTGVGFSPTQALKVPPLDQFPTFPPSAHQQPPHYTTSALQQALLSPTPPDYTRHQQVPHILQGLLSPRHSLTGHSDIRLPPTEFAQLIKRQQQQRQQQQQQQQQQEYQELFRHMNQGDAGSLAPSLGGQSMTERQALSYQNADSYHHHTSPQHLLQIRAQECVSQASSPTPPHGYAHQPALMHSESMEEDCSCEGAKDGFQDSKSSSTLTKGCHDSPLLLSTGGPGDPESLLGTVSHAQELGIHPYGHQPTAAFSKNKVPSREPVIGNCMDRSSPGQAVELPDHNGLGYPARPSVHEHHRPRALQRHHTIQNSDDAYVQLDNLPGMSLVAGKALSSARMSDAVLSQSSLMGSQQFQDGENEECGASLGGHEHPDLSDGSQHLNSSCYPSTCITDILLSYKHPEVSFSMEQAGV
Sequence of UniProt P10635 (whole entry, looked up): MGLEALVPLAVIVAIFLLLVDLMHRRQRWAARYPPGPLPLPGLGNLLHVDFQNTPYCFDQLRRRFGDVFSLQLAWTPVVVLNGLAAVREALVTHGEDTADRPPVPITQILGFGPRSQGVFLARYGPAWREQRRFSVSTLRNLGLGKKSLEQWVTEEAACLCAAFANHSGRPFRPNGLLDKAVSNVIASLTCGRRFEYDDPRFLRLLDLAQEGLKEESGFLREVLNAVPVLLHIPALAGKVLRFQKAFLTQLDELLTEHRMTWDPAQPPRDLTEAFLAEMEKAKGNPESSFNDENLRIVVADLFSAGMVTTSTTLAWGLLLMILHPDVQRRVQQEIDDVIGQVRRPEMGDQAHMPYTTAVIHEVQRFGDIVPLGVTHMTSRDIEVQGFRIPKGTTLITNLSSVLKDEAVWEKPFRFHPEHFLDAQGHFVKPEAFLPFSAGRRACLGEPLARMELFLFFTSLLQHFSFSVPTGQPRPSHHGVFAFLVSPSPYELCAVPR
Sequence of UniProt P0C1S8 (whole entry, looked up): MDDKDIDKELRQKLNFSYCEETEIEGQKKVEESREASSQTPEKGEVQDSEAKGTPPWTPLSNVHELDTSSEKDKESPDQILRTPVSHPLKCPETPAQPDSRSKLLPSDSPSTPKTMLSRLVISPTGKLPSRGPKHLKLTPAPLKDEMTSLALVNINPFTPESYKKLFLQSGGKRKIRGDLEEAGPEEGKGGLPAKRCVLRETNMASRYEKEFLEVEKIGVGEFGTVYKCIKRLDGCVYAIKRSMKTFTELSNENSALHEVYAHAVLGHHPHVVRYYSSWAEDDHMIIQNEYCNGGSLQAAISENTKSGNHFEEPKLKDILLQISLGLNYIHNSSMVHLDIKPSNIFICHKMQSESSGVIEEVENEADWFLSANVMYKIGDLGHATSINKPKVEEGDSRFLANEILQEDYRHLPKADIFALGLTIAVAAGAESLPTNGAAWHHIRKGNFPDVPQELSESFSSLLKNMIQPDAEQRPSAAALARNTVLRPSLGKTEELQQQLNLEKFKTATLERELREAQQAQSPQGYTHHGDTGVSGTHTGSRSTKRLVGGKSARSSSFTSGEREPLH
Sequence of UniProt P10632 (whole entry, looked up): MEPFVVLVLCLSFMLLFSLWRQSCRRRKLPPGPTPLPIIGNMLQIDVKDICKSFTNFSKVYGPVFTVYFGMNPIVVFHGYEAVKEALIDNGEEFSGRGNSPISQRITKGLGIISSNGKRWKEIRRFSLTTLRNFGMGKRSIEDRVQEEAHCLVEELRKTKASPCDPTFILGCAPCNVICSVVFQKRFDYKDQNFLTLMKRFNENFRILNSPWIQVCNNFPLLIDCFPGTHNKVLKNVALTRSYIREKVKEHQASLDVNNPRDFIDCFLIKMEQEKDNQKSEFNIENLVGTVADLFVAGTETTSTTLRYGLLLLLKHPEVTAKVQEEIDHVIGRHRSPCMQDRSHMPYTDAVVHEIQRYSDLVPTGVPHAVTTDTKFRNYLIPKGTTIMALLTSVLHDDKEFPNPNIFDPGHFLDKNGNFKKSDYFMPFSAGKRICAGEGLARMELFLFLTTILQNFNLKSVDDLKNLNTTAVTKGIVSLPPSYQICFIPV

Study 1 — concentration: 1 µM
SMILES: CC[C@@]1(c2ccccc2)C2=C(CC(C)(C)CC2=O)Nc2n[nH]cc21
The remaining binding was 79% (EGFR (Homo sapiens, UniProt P00533, del747-752/P753S); binding, competition with immobilised ligand).
It gave 82% for remaining binding (GRK1 (Homo sapiens, UniProt Q15835); binding, competition with immobilised ligand).
For SIK3 (Homo sapiens, UniProt Q9Y2K2); binding, competition with immobilised ligand: remaining binding read 94%.
EGFR (Homo sapiens, UniProt P00533, G719C); kinase binding, KINOMEscan; baseline: DMSO control — remaining binding: 100%.
It gave 84% for remaining binding (NEK3 (Homo sapiens, UniProt P51956); kinase binding, KINOMEscan; baseline: DMSO control).
MAP3K7 (Homo sapiens, UniProt O43318); binding, competition with immobilised ligand — remaining binding: 81%.
For FGFR3 (Homo sapiens, UniProt P22607, G697C); binding, competition with immobilised ligand: remaining binding read 100%.
The remaining binding was 100% (WEE2 (Homo sapiens, UniProt P0C1S8); binding, competition with immobilised ligand).

Study 2 — observed: enzyme activity; matrix: human liver microsomes; baseline: negative control
Structure (SMILES): Cn1cc(-c2cccc(CN3CCC4(CC3)COc3c4ccc4c3CN([C@H]3CCC(=O)NC3=O)C4=O)c2)cn1
CYP2B6: Cytochrome P450 2B6 (CYP2B6, Homo sapiens, UniProt P20813)
Sequence of UniProt P20813 (whole entry, looked up): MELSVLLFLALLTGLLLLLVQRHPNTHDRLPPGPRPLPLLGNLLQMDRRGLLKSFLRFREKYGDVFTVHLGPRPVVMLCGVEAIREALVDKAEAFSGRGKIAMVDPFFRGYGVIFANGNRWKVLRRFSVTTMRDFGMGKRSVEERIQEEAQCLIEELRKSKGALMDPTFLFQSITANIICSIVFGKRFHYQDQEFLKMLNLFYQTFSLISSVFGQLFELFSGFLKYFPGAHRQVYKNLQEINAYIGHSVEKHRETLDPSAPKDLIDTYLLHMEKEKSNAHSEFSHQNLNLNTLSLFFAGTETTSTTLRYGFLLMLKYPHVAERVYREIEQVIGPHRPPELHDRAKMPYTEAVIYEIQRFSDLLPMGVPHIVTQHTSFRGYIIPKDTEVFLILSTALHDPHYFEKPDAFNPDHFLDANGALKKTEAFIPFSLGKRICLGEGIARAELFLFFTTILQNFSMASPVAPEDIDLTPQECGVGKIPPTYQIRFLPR
CYP1A2: Cytochrome P450 1A2 (CYP1A2, Homo sapiens, UniProt P05177)
Sequence of UniProt P05177 (whole entry, looked up): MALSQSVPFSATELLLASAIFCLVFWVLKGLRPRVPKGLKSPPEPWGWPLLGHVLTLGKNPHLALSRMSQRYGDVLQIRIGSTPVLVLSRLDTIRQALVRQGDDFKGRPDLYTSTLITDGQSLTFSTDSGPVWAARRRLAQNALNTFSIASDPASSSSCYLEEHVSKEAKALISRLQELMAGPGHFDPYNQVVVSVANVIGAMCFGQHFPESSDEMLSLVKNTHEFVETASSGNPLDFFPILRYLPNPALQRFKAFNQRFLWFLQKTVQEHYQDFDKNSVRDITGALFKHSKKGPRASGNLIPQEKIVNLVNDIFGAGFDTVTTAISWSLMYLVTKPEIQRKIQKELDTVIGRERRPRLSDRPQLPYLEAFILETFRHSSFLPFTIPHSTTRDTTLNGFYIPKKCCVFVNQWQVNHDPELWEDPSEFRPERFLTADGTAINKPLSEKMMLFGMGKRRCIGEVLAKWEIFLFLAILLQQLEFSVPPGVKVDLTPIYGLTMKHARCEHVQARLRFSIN
It gave 85% for remaining activity (CYP2B6; 3.33 µM).
The remaining activity was 98% (Cytochrome P450 3A4 (CYP3A4, Homo sapiens, UniProt P08684); 0.12 µM, added: testosterone substrate).
For CYP1A2; 0.12 µM: remaining activity read 84.6%.
The remaining activity was 84.5% (CYP2B6; 0.37 µM).
CYP2B6; 1.11 µM — remaining activity: 89%.
CYP1A2; 0.04 µM — remaining activity: 88.9%.
Cytochrome P450 2C8 (CYP2C8, Homo sapiens, UniProt P10632); 0.04 µM — remaining activity: 104%.
The remaining activity was 76.7% (CYP2B6; 10.00 µM).
The remaining activity was 103% (Cytochrome P450 2D6 (CYP2D6, Homo sapiens, UniProt P10635); 0.37 µM).
The remaining activity was 100% (CYP2C19 (Homo sapiens, UniProt P33261); 1.11 µM).

Study 3 — host: mouse, sample A SCLC PDX; route: oral; dose: 100 mg/kg three times daily
SMILES: CC(C)C[C@@H]1NC(=O)[C@@H](N(C)C(=O)[C@@H](NC(=O)[C@@H]2C[C@@H](F)CN2C(=O)C2(C(F)(F)F)CC(F)(F)C2)C2CC2)CCCCCCCN(C)C(=O)[C@H](Cc2cc(Cl)cnc2OC2CC2)N(C)C1=O
day 4 — tumour volume: 138 mm3 and 150 mm3 and 134 mm3 and 103 mm3 and 124 mm3.
The tumour volume was 131 mm3 and 179 mm3 and 160 mm3 and 263 mm3 (day 11).
day 28 — tumour volume: 235 mm3 and 261 mm3 and 217 mm3 and 312 mm3 and 480 mm3.
The tumour volume was 226 mm3 and 290 mm3 and 136 mm3 and 183 mm3 (day 14).

Study 4 — cell line: A-375 (KRAS wild type); technique: in-cell ELISA; refers to: phospho-ERK1/2; time: 2 h
SMILES: CCN1CCN(Cc2ccc(COc3c(-c4c(C)c(F)cc5[nH]ncc45)c(C4CC4)cc4c(N5C[C@@H]6C[C@H]5CN6)nc(OC5CCOCC5)nc34)cc2)C(=O)C1
300 nM — ERK1/2 phosphorylation: 137% and 153% and 142%.
It gave 110% and 135% and 133% and 125% for ERK1/2 phosphorylation (100 nM).
The ERK1/2 phosphorylation was 149% and 120% and 109% and 116% (10 µM).

Excerpt of the above (study 3):
day 4 — tumour volume: 138 mm3 and 150 mm3 and 134 mm3 and 103 mm3 and 124 mm3.
The tumour volume was 131 mm3 and 179 mm3 and 160 mm3 and 263 mm3 (day 11).
day 28 — tumour volume: 235 mm3 and 261 mm3 and 217 mm3 and 312 mm3 and 480 mm3.
The tumour volume was 226 mm3 and 290 mm3 and 136 mm3 and 183 mm3 (day 14).
